Results collected from several papers.
Parts stem from different laboratories: compare values within a part only.

Set 1
Target: Interferon regulatory factor 5, full length, phosphomimetic (IRF5, Homo sapiens, UniProt Q13568-2, residues 1-514, K96S/S451D/S453D/S456D/S462D)
Technique: protein-binding microarray
Form: double-stranded DNA, one strand shown
Matrix: in vitro
Concentration: 250 nM
Notes: 60-bp whole probe
Added: salmon DNA 0.4 mg/ml
Relative to: random background probes
Direction: higher = stronger binding
`GCCTAGCACGACGGACTGCTTTTCTTGACGTGCTAGGTCTTGATTCGCTTGACGCTGCTG` has a log fluorescence of 0.022 z-score.
For `GCCTAGCACTCAACTTTCTTTAACATACTGTGCTAGGTCTTGATTCGCTTGACGCTGCTG`, the log fluorescence was 1.92 z-score.
The log fluorescence of `GCCTAGCACGACGAACTGACTTTCGAGACGTGCTAGGTCTTGATTCGCTTGACGCTGCTG` is reported as 5.52 z-score.
With `GCCTAGCACCCGTGTTTCTCAACCATTTTGTGCTAGGTCTTGATTCGCTTGACGCTGCTG` the log fluorescence was 0.692 z-score.

Set 2
Target: Histone acetyltransferase KAT6A, winged helix 2, GST fusion (KAT6A, Homo sapiens, UniProt Q92794, residues 85-181)
Technique: protein binding microarray
Form: double-stranded DNA, one strand shown
Matrix: in vitro
Concentration: not given
Notes: 8-mer, flanks averaged, mean of 2 arrays, mostly near background
Relative to: not given
Direction: higher = stronger binding
Residues (chain): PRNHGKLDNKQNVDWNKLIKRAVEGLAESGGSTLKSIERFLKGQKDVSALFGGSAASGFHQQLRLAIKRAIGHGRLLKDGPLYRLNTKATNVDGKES
`ACTCTCCC` has an E-score of 0.00778.
`CCCGCCAG` gave an E-score of 0.0645.
With `GGCTGTCA` the E-score was 0.0212.
For `ACCGATAA`, the E-score was 0.0648.
`ATCTGAAG` gave an E-score of -0.156.

Set 3
Target: RNA binding protein fox-1 homolog 2, RRM domain, GST-SBP tag (RBFOX2, Homo sapiens, UniProt O43251-10, residues 100-194)
Technique: RNA Bind-n-Seq
Form: RNA
Matrix: in vitro
Concentration: 365 nM
Notes: natural RNA segment, single round, ends assumed
Relative to: no-protein control
Direction: higher = stronger binding
Residues (chain): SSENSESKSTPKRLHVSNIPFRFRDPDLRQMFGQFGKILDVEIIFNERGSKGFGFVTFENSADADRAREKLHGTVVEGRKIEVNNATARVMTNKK
Under “RBNS enrichment (R)”, `GGGAGUUCUACAGUCCGACGAUCUGUUGCCCAGCUCAGGGUGUCUGCUUGGUGGCUCUAACCCCUGCCCAUCCAGUUGUUUCUGGGCUGUGCGAGAGAUCAUACAUUGAUCUGUGUGUGAUGAGUUGAGGGCUUGGAAUUCUCGGGUGCCAA` is recorded as 0.492.
For `GGGAGUUCUACAGUCCGACGAUCCAAUUGUUUUUACAGUUUUAGCCAAGUUUCUGUGAAUGCUAGAGAUUUAUACUUGAUUAUUUGUAUUUUCAUAAUGAGCUUCUUUGGGGACUCUAAAGAAGCAUUUUUGUUGGAAUUCUCGGGUGCCAA`, “RBNS enrichment (R)” read 6.14.
`GGGAGUUCUACAGUCCGACGAUCAGGAGGGUCAGGGCUGGCCUUCCUCUGUGCAUCACUCUGCUAGGUUGGGGGCCCCCGACCCACCAUACCUACGCCUAGGGAGCCCGUCCUCCAGUAUUCCGUCUGUAGCAUGGAAUUCUCGGGUGCCAA`: “RBNS enrichment (R)” 2.43.
For `GGGAGUUCUACAGUCCGACGAUCUCGGCUCGCCUCUGCUCCUUUCAUCUAGAAAGAAGCCACUGACCCUGACAGCCCACGGCGGGUACACUGAGCAGCUGCAUUGGUGCUGUCACUUUUUUAAGGCUUUCUGUUGGAAUUCUCGGGUGCCAA`, “RBNS enrichment (R)” read 0.265.

Mixed results
The fold induction of `PhoQ, residues 284 288 289 292 302 303 TLASMF` is reported as 3.78 (PhoP, residues 12 14 15 18 19 IQSYL (Escherichia coli, UniProt P23836); Sort-seq, measured: YFP reporter; E. coli; PhoQ-PhoP variant library, added: 10 µM Mg2+; relative to: high Mg2+ state, higher = stronger signaling).

For quick reference, copied from above (set 3):
For `GGGAGUUCUACAGUCCGACGAUCCAAUUGUUUUUACAGUUUUAGCCAAGUUUCUGUGAAUGCUAGAGAUUUAUACUUGAUUAUUUGUAUUUUCAUAAUGAGCUUCUUUGGGGACUCUAAAGAAGCAUUUUUGUUGGAAUUCUCGGGUGCCAA`, “RBNS enrichment (R)” read 6.14.
